Assay results collected from several papers.
“And” joins repeats or separate records; there may be more than shown.

| Compound | target or system | test | test system | conditions | scale | quantity | result |
| --- | --- | --- | --- | --- | --- | --- | --- |
| Cc1ccc(Nc2nccc(N(C)c3ccc4c(C)n(C)nc4c3)n2)cc1S(N)(=O)=O | MAPK1 (human) | kinase activity, inhibitor | – | 0.3 µM | – | inhibition | -2% |
| N=C(NCCCSC[C@H]1O[C@@H](n2cnc3c(NCCCc4ccccc4)ncnc32)[C@H](O)[C@@H]1O)NCCCc1ccccc1 | CamA DNA adenine methyltransferase (Clostridioides difficile) | enzyme activity, inhibitor, MTase-Glo luminescence (SAH) | – | 10 µM, 3 min, pH 7.5, 22 °C, with: SAM 40 µM | – | inhibition | < 10% |
| CCN(CC)CCNC(=O)c1c(C)[nH]c(/C=C2\C(=O)Nc3ccc(F)cc32)c1C | MAPK1 (human) | kinase activity, inhibitor | – | 10 µM | – | inhibition | 3% |
| Nc1ncnc2[nH]cnc12 | – | binding, equilibrium dialysis LC-MS | – | 5 µM, thermostabilized A2AR-BRIL construct | relative to: no-protein control, direction not given | z-scored log2 fold change | 1.18 |
| CC(C)n1nc(-c2ccc3oc(N)nc3c2)c2c(N)ncnc21 | NLRP3 inflammasome (mouse) | – | mouse BMDM | 10 µM | – | inhibition | 7.46% |
| CCC(C)C(O)C(=O)O (centres unmarked) | – | binding, equilibrium dialysis LC-MS | – | 5 µM, thermostabilized A2AR-BRIL construct | relative to: no-protein control, direction not given | z-scored log2 fold change | -0.58 |
| N=C(NCCCSC[C@H]1O[C@@H](n2cnc3c(NCCCc4ccccc4)ncnc32)[C@H](O)[C@@H]1O)NCc1ccccc1 | CamA DNA adenine methyltransferase (Clostridioides difficile) | enzyme activity, inhibitor, MTase-Glo luminescence (SAH) | – | 10 µM, 3 min, pH 7.5, 22 °C, with: SAM 40 µM | – | inhibition | < 10% |
| O=C(/C=C/c1ccc(O)c(O)c1)c1ccc(O)cc1O | HIF-1, mouse | reporter gene | NIH3T3, HIF-1 luciferase transfected | concentration not given, with: cobalt chloride | – | inhibition | inactive |
| COc1cc2ncnc(Nc3ccc(F)c(Cl)c3)c2cc1NC(=O)/C=C/CN1CCCCC1 | NLRP3 inflammasome (mouse) | – | mouse BMDM | 10 µM | – | inhibition | 67% |
| N=C(NCCCSC[C@H]1O[C@@H](n2cnc3c(NCCCc4ccccc4)ncnc32)[C@H](O)[C@@H]1O)NCCc1ccccc1 | CamA DNA adenine methyltransferase (Clostridioides difficile) | enzyme activity, inhibitor, MTase-Glo luminescence (SAH) | – | 10 µM, 3 min, pH 7.5, 22 °C, with: SAM 40 µM | – | inhibition | < 10% |
| Clc1ccc(Nc2nnc(Cc3ccncc3)c3ccccc23)cc1 | NLRP3 inflammasome (mouse) | – | mouse BMDM | 10 µM | – | inhibition | 89% |
| C#Cc1cc(-c2cc(Nc3nc(N[C@@H](C)c4ccc(F)cn4)ncc3Cl)n[nH]2)ccc1C=O | CCDC6-RET kinase fusion, human | kinase activity, inhibitor | – | 0.2 µM | – | inhibition | 76% and 75.2% |
| Cc1cnc(NC(=O)Nc2cc(Br)c(C)cc2OC[C@@H]2CNCCO2)cn1 | NLRP3 inflammasome (mouse) | – | mouse BMDM | 10 µM | – | inhibition | 24.1% |
| CNc1cc(Oc2cc(C(=O)Nc3cc(N4CCN(C)CC4)cc(C(F)(F)F)c3)ccc2C)ncn1 | Aurora kinases A/B/C (human) | kinase probe binding, inhibitor, KiNativ | Huh-7 | 1 µM | – | inhibition | -17.6% |

For quick reference, copied from above:
| Compound | target or system | test | test system | conditions | scale | quantity | result |
| --- | --- | --- | --- | --- | --- | --- | --- |
| N=C(NCCCSC[C@H]1O[C@@H](n2cnc3c(NCCCc4ccccc4)ncnc32)[C@H](O)[C@@H]1O)NCCCc1ccccc1 | CamA DNA adenine methyltransferase (Clostridioides difficile) | enzyme activity, inhibitor, MTase-Glo luminescence (SAH) | – | 10 µM, 3 min, pH 7.5, 22 °C, with: SAM 40 µM | – | inhibition | < 10% |
| CCN(CC)CCNC(=O)c1c(C)[nH]c(/C=C2\C(=O)Nc3ccc(F)cc32)c1C | MAPK1 (human) | kinase activity, inhibitor | – | 10 µM | – | inhibition | 3% |
